Assay results from different studies.
± gives the spread as reported.
PLA2G6: 85/88 kDa calcium-independent phospholipase A2 (PLA2G6, Homo sapiens, UniProt O60733)
IDE: Insulin-degrading enzyme (IDE, Homo sapiens, UniProt P14735)
NPFFR1: Neuropeptide FF receptor 1 (NPFFR1, Homo sapiens, UniProt Q9GZQ6)
Methyl-accepting chemotaxis protein CtaA sensing domain: Methyl-accepting chemotaxis protein CtaA, sensing domain (Pseudomonas fluorescens, UniProt Q3K7T6)

The Kd of `Nc1nc2c(ncn2[C@@H]2O[C@H](COP(=O)(O)OP(=O)(O)OP(=O)(O)O)[C@@H](O)[C@H]2O)c(=O)[nH]1` is reported as 230 ± 60 µM (tRNA(His) guanylyltransferase (THG1, Saccharomyces cerevisiae, UniProt P53215, R27A); nucleotidyl transfer, substrate, single-turnover kinetics; pH 7.5, room temperature, added: ppp-tRNA(His)).
`CCC[C@@H]1OC(=O)[C@@H]1CCCCc1ccccc1` (racemic) has an XI(50) of 0.007 mole fraction (PLA2G6; enzyme activity, inhibitor, lipidomics mixed micelle).
For `O=S(=O)(Nc1cccn(O)c1=S)c1ccc(-c2ccccc2)s1`, the Ki was 23 µM (IDE; substrate degradation, inhibitor; mean of insulin, Aβ, substrate V).
With `Cc1cc(NC(=O)CS(=O)(=O)c2cn(Cc3ccccc3Cl)c3ccccc23)no1` the EC50 was about 13 µM (Chrm1 (Rattus norvegicus, UniProt P08482); calcium signal, agonist).
The Kb of `COc1ccc(CN[C@H]2C[C@@H](C(=O)NCCc3ccc(OC)c(OC)c3)N(Cc3ccccc3Cl)C2)cc1` is reported as 1.03 ± 0.05 µM (NPFFR1; calcium mobilization, antagonist; CHO; 15 min, added: NPFF).
The Kd of `N[C@@H](CO)C(=O)O` is reported as 6 ± 3 µM (Methyl-accepting chemotaxis protein CtaA sensing domain; binding, thermal shift, unfolding equilibrium).
For `COc1ccc(CN[C@H]2C[C@@H](C(=O)NCCc3ccc(C(C)=O)cc3)N(Cc3ccccc3Cl)C2)cc1`, the Kb was over 10 µM (NPFFR1; calcium mobilization, antagonist; CHO; 15 min, added: NPFF).
The Kd of `CC(C)C[C@H](N)C(=O)O` is reported as 7.4 ± 1.9 µM (Methyl-accepting chemotaxis protein CtaA sensing domain; binding, thermal shift, curve fitting).
`Nc1ccc(-c2cc3ccccc3[nH]2)cc1` gave an inhibition of 81.7 ± 4.2% (HEK293 NF-κB luciferase reporter; reporter gene, item: NF-κB; 50 µM, 6 h, added: TNFα).
With `NS(=O)(=O)c1cccn(O)c1=S` the Ki was 50 µM (IDE; substrate degradation, inhibitor; mean of insulin, Aβ, substrate V).
For `O[C@H](c1cc(C(F)(F)F)nc2c(C(F)(F)F)cccc12)[C@H]1CCCCN1`, the EC50 was 0.8 ± 0.25 µM (Pannexin-1 (Panx1, Mus musculus, UniProt Q9JIP4); ion current, blocker, whole-cell patch clamp; Neuro2A transfected with Panx1-GFP; added: voltage ramp depolarization).
The Ki of `O=S(=O)(Nc1cccn(O)c1=S)C1CC1` is reported as 32 µM (IDE; substrate degradation, fluorescence polarisation; mean of physiological substrates).
The Kd of `O=C(O)c1cc(NC(=O)C2CC2c2ccccc2)ccc1O` (stereo not shown) is reported as 3.5 µM (GTPase KRas (KRAS, Homo sapiens, UniProt P01116, Q61H); microscale thermophoresis; second low-affinity site, added: GNP-bound).
With `CC(C)(CC(=O)N1CCCC1)NCC(=O)N1C[C@@H](F)C[C@H]1C#N` the EC50 was 0.249 µM (DPP4 (Homo sapiens, UniProt P27487); enzyme activity, inhibitor; Chinese type 2 diabetes patients, plasma; Emax model, multiple doses).
`CC(C)[C@H](NC(=O)[C@@H]1CCCN1C(=O)[C@H](CCCNC(=N)N)NC(=O)[C@H](CS)NC(=O)[C@H](Cc1c[nH]c2ccccc12)NC(=O)[C@H](CCCNC(=N)N)NC(=O)[C@@H](Cc1ccccc1)NC(=O)[C@H](Cc1c[nH]cn1)NC(=O)[C@H](CCC(=O)O)NC(=O)[C@H](CS)NC(=O)[C@H](CS)NC(=O)[C@H](CCCCN)NC(=O)[C@@H]1CC(=O)N[C@@H](CCCNC(=N)N)C(=O)N[C@@H](C)C(=O)N[C@@H](CC(=O)O)C(=O)N[C@H](Cc2ccc(O)cc2)C(=O)N1)C(N)=O` [technetium-99m labelled] gave a tissue uptake of 0.39 ± 0.24 %ID/g (C57 mice, spleen; intravenous, 0.037 MBq, 24 h).
`c1ccc2[nH]c(-c3ccsc3)cc2c1` has an inhibition of 35.6 ± 3.1% (HEK293 NF-κB luciferase reporter; reporter gene, item: NF-κB; 50 µM, 6 h, added: TNFα).
The Kb of `O=C(CSc1nnc(NCc2ccccc2)s1)NCC1CCCCC1` is reported as 2.2 ± 0.2 µM (Glutamate NMDA receptor; Grin1/Grin2a (Grin1/Grin2a, Rattus norvegicus, UniProt P35439+Q00959); ion current, antagonist, two-electrode voltage clamp; Xenopus laevis oocytes; mean of individual Schild values).
`CCOc1ccc2c(c1)C1(CCC(OCCN3CCOCC3)CC1)C(=O)N2S(=O)(=O)c1ccc(C(=O)NC(C)(C)C)cc1OC` (stereo not shown) has an EC50 of 0.00197 ± 0.00025 µM (AVPR2 (Homo sapiens, UniProt P30518, L83Q); rescue of cAMP response, cAMP-Glo luminescence; HeLa, mutant receptor expressed; without doxycycline, added: vasopressin EC100).
`COC(=O)c1ccc2c(C(CC(F)(F)F)c3cccs3)c(-c3ccccc3)[nH]c2c1` (single isomer, unassigned; (-)) gave an EC50 of 0.416 ± 0.167 µM (CNR1 (Homo sapiens, UniProt P21554); agonist; compound alone).
`Cn1cc(S(=O)(=O)Nc2cccn(O)c2=S)cn1` gave a Ki of 15 µM (IDE; substrate degradation, fluorescence polarisation; mean of physiological substrates).
For `C[C@H](N)C(=O)O`, the Kd was 6.3 ± 0.4 µM (Methyl-accepting chemotaxis protein CtaA sensing domain; binding, thermal shift, zero heat capacity; 25 °C).
`Cc1cccc(Oc2cc(Oc3cccc(C)n3)cc(Oc3cccc(C)n3)c2)n1` has an EC50 of about 0.058 µM (NLR family member X1 (Nlrx1, Mus musculus, UniProt Q3TL44); thermal stabilisation, CETSA; mouse splenocytes; 3 h).
`C[C@H](CCC(=O)N[C@@H](CCC(=O)OCc1ccccc1)C(=O)O)[C@H]1CC[C@H]2[C@@H]3[C@H](O)C[C@@H]4C[C@H](O)CC[C@]4(C)[C@H]3CC[C@]12C` has a Ki of 3.28 µM (SLC10A1 (Homo sapiens, UniProt Q14973); transporter uptake, inhibitor, radiometric).
For `CCC[C@H]1OC(=O)[C@@H]1CCCc1ccccc1` (racemic), the XI(50) was 0.00019 mole fraction (PLA2G6; enzyme activity, inhibitor, mixed micelle; 50% inhibition).
`CNC(=O)c1ccc(CCNC(=O)[C@@H]2C[C@H](NCc3ccc(OC)cc3)CN2Cc2ccccc2Cl)cc1` has a Kb of over 10 µM (NPFFR1; calcium mobilization, antagonist; CHO; 15 min, added: NPFF).
The Ki of `O=C(Nc1cccn(O)c1=S)c1ccccc1` is reported as 57 µM (IDE; substrate degradation, inhibitor; mean of insulin, Aβ, substrate V).
For `CCCC(C)O` (stereo not shown), the EC50 was 32.7 ppm (Or22a (Drosophila melanogaster, UniProt P81909); neuronal calcium response, agonist, in vivo calcium imaging; antennal neurons; headspace concentration, partial maximum).
`CNC(=O)[C@@H]1C[C@H](NCc2ccc(OC)cc2)CN1Cc1ccccc1Cl` has a Kb of over 10 µM (NPFFR1; calcium mobilization, antagonist; CHO; 15 min, added: NPFF).
With `CCOC(=O)Nc1ccc(SCc2ccccn2)nc1N` the EC50 was over 10 µM (Voltage-gated potassium channel, KQT; KCNQ2(Kv7.2)/KCNQ3(Kv7.3) (KCNQ3/KCNQ2, Homo sapiens, UniProt O43525+O43526); thallium flux, opener, fluorescence thallium flux; HEK293 expressing KV7.2/3; 30 min).
The EC50 of `Nc1ncnc2c1ncn2[C@@H]1O[C@H](COP(=O)(O)OP(=O)(O)OC[C@H]2O[C@@H](O)C(O)[C@H]2O)C(O)[C@@H]1OP(=O)(O)O` (stereo partly shown) is reported as 121 ± 7 µM (TRPM2 (Nematostella vectensis, UniProt A7T1N0, R329A); channel activation, agonist, inside-out patch clamp; estimate uncertain, added: 125 µM Ca2+ and 2.5 µM PIP2).
`Cc1cc(NS(=O)(=O)c2cccs2)c(=S)n(O)c1` gave a Ki of 12 µM (IDE; substrate degradation, inhibitor; mean of insulin, Aβ, substrate V).
For `CC(C)[C@H](N)C(=O)O`, the Kd was 4 ± 1 µM (Methyl-accepting chemotaxis protein CtaA (Pseudomonas fluorescens, UniProt Q3K7T6); binding, ITC).
For `C[C@@H]1CN(c2ccc(-c3cc(C(=O)NCCOCCOCCOCCOCCNC(=O)Cn4cc(-c5[nH]cc(C(=O)N[C@@H](CC(N)=O)c6ccc(F)c(Cl)c6)c5-c5ccc(Cl)cc5F)cn4)ccc3F)cc2NC(=O)c2c[nH]c(=O)cc2C(F)(F)F)C[C@H](C)N1C`, the DC50 was 0.2 ± 0.028 µM (WDR5/DCAF1 (Homo sapiens, UniProt P61964+Q9Y4B6); degrader, item: HiBiT-WDR5; MV4-11 expressing HiBiT-WDR5; 24 h).
For `O=S(=O)(Nc1cccn(O)c1=S)c1cccs1`, the Ki was 9 µM (IDE; substrate degradation, inhibitor; mean of insulin, Aβ, substrate V).
